Measurements gathered from unrelated publications.
Each line is one published result; not all experiments were run side by side. “And” joins repeats or separate records; there may be more than shown. Numbers after ± are the reported error.
Chain of UniProt P24666 (whole entry, looked up): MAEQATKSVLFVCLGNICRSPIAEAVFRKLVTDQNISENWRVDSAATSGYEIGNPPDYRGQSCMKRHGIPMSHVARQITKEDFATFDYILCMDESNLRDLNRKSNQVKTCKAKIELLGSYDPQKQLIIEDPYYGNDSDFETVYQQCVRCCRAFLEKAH
Chain of UniProt P50613 (whole entry, looked up): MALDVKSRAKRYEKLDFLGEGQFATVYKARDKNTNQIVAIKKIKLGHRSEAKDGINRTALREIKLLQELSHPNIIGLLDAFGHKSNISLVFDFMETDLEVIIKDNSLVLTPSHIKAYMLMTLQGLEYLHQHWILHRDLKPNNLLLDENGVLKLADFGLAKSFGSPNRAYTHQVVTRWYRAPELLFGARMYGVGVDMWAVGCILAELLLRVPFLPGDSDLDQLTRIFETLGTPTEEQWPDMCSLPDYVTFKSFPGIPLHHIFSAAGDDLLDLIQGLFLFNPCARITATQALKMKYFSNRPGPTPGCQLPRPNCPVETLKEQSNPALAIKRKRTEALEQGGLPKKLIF

| SMILES | tested on | test | system | setting | how to read | measurement | value |
| --- | --- | --- | --- | --- | --- | --- | --- |
| C[C@@H](O)[C@@H](CO)NC(=O)[C@@H](CCCNC(=N)N)NC(=O)[C@@H]1CCCN1C(=O)[C@@H]1CSSC[C@H](NC(=O)[C@H](Cc2ccccc2)NC(=O)CN2CCN(CC(=O)O)CCN(CC(=O)O)CCN(CC(=O)O)CC2)C(=O)N[C@@H](Cc2ccc(O)cc2)C(=O)N[C@@H](Cc2ccccc2)C(=O)N[C@@H](CCC(N)=O)C(=O)N[C@@H](CC(N)=O)C(=O)N1 [gallium-68 labelled] | – | – | healthy Wistar rat, lungs | intravenous, 8 MBq, 30 min, individual animals | – | tissue uptake | 0.7 %ID/g |
| CN1CCN(S(=O)(=O)c2cc([N+](=O)[O-])ccc2N(CCOS(C)(=O)=O)CCOS(C)(=O)=O)CC1 | – | – | NSG mice, T-ALL PDX sample E | intraperitoneal, 25 mg/kg, single mouse trial | – | T-C | > 264 days |
| COc1cc(CCC[P+](c2ccccc2)(c2ccccc2)c2ccccc2)c(OC)c2c1OCO2.[I-] | T47D | SRB | – | – | – | LC50 | > -4 log M |
| O=S(=O)(O)C(F)(F)C(F)(F)C(F)(F)C(F)(F)C(F)(F)C(F)(F)C(F)(F)C(F)(F)C(F)(F)C(F)(F)F | – | RNA-seq pathway analysis, refers to: cholesterol biosynthesis genes | liver spheroids | concentration not given, 24 h and 10 d | – | gene expression | decreased |
| CC[C@H](C)[C@@H]1NC(=O)[C@@H]2CCCN2C(=O)[C@H](CC(C)C)NC(=O)[C@H](CC(C)C)NC(=O)CNC(=O)[C@@H](NC(=O)[C@@H](NC(=O)[C@H](CC(=O)O)NC(=O)CNC(=O)[C@@H](NC(=O)[C@H](C)NC(=O)CNC(=O)[C@H](CCCCN)NC(=O)[C@H](CC(C)C)NC(=O)[C@H](CC(C)C)NC(=O)[C@H](CCCCN)NC(=O)CNC(=O)[C@@H](NC(=O)[C@@H](N)CC(C)C)C(C)C)C(C)C)C(C)C)CSSC[C@@H](C(=O)O)NC1=O | – | RNA-seq, refers to: Lck | mouse, traumatic brain injury model, frontal cortex and hippocampus | dose not given | relative to: TBI alone | log2 fold change | -1.48 |
| COc1cc(Nc2ncc(F)c(Nc3ccc4c(n3)NC(=O)C(C)(C)O4)n2)cc(OC)c1OC | Low molecular weight phosphotyrosine protein phosphatase, isoform B (ACP1, Homo sapiens, UniProt P24666) | – | – | LMPTP-B | – | IC50 | > 10 µM |
| C[C@H]1CN(c2n[nH]c3nc(N[C@H]4CC[C@H](NS(=O)(=O)CCC(F)(F)F)CC4)ncc23)CCO1 | CDK7 (Homo sapiens, UniProt P50613) | Kinobeads competition | HEK293, K562, placenta lysate | 0.16 µM, unit not given | relative to: vehicle | remaining binding | 0.94 |
| COc1cc2c(Oc3ccc4[nH]c(C)cc4c3F)ccnc2cc1OCC1(N)CC1 | – | – | paediatric recurrent refractory sarcoma | 10 mg | – | grade 1 or 2 Myalgia | 25% |
| COc1ccc(-c2ccc3ncc4c(c3c2)n([C@@H]2CCN(C)CC2(F)F)c(=O)n4C)cn1 | – | – | mouse, sample A orthotopic PDX | 7.5 mg/kg x 10, with: 2.3 Gy radiation | – | survival | 371 ± 131 days |
| COc1ccc(CCC2CCCC(CCc3ccc(OC)cc3)N2C[C@@H](O)CO)cc1.Cl (stereo in doubt) | – | – | rat striatal slices | 30 µM, 30 min, no methamphetamine | – | DOPAC overflow | 621 ± 184 pg/30 mL/mg |
| Cc1cn([C@H]2O[C@@H](CO[P@@](=O)(N[C@@H](C)C(=O)OC(C)C)Oc3ccccc3)[C@H](O)[C@H]2F)c(=O)[nH]c1=O | – | – | adults with chronic hepatitis B | 10 mg, day 28 | relative to: baseline | change in HBsAg | -0.11 log10 IU/mL |
| Cc1cn(-c2cc(NC(=O)c3ccc(C)c(Nc4nccc(-c5cccnc5)n4)c3)cc(C(F)(F)F)c2)cn1 | – | – | human patients | dose not given, 12 months from baseline, caregiver distress | relative to: placebo, direction not given | difference in mean NPI score | -1 |
| CC(=O)c1c(C)c2cnc(Nc3ccc(C4CCN(CCS(C)(=O)=O)CC4)cn3)nc2n(C2CCCC2)c1=O | – | tumour growth | rat, MCF7 breast cancer model | oral, 40 mg/kg twice daily, 28 days | – | T/C | -25% |
| O=C(O)/C=C/C(=O)O.Oc1cccc2[nH]cc(CCNCc3ccccc3)c12 | – | – | C57BL/6J mice | subcutaneous, 0.3 mg/kg | relative to: pre-session baseline | body temperature change | 0 ± 0.1 °C |
| CC[C@@H](C)[C@@H](NC(=O)[C@@H](Cc1ccc(O)cc1)NC(=O)[C@H]1CCCN1C(=O)[C@@H](CCCNC(=N)N)NC(=O)[C@H](N)Cc1c[nH]cn1)C(=O)N[C@H](C)C(=O)N[C@H](Cc1c[nH]cn1)C(=O)N[C@H](CCCNC(=N)N)C(=O)N[C@H](CCCCNC(=O)c1cccc(S(=O)(=O)F)c1)C(=O)N[C@H](Cc1ccc(O)cc1)C(=O)N[C@H](CO)C(=O)N[C@H](Cc1ccccc1)C(N)=O | – | – | mouse orthotopic GL261-Luc glioma | intraperitoneal, 3.9 mg/kg, no detectable bioluminescence | – | tumour-free survival | > 90 days |
| CS(=O)(=O)c1ccc(-c2nnc(/C=C/c3nnc(-c4ccc(C#N)cc4)o3)n2-c2ccccc2Cl)nc1 | – | RNA-seq GSEA, refers to: HALLMARK_UNFOLDED_PROTEIN_RESPONSE | organoids, small intestinal, Apc Q1405X, mouse | dose not given, knockout organoids | relative to: DMSO, direction not given | normalized enrichment score | -1.83 |
| C=CCNc1c(O)cc2c(O)c1C[C@@H](C)C[C@H](OC)[C@H](O)[C@@H](C)/C=C(\C)[C@H](OC(N)=O)[C@@H](OC)/C=C\C=C(/C)C(=O)N2 | – | 18F-FDG PET | human GIST | dose not given | – | patients with reduced FDG avidity | 66% |
| Clc1cc2c(cc1Cl)Oc1cc(Cl)c(Cl)cc1O2 | – | RNA-Seq, refers to: Cyp4a2 | female Sprague-Dawley rat, liver | dose not given | relative to: vehicle | mRNA level | 2 fold |
| CC[C@H](C)[C@H](NC(=O)[C@H](Cc1ccccc1)NC(=O)[C@H](CCC(=O)O)NC(=O)[C@H](CCCNC(=N)N)NC(=O)[C@H](C)NC(=O)[C@H](C)NC(=O)[C@H](CCC(N)=O)NC(=O)[C@H](CCC(=O)O)NC(=O)[C@H](CCC(=O)O)NC(=O)[C@H](CC(C)C)NC(=O)[C@H](Cc1ccc(O)cc1)NC(=O)[C@H](CO)NC(=O)[C@H](CO)NC(=O)[C@@H](NC(=O)[C@H](CC(=O)O)NC(=O)[C@H](CO)NC(=O)[C@@H](NC(=O)[C@H](Cc1ccccc1)NC(=O)[C@@H](NC(=O)CNC(=O)[C@H](CCC(=O)O)NC(=O)[C@H](C)NC(=O)CCc1c[nH]cn1)[C@@H](C)O)[C@@H](C)O)C(C)C)C(=O)N[C@@H](C)C(=O)N[C@@H](Cc1c[nH]c2ccccc12)C(=O)N[C@@H](CC(C)C)C(=O)N[C@H](C(=O)N[C@@H](CCCNC(=N)N)C(=O)NCC(=O)N[C@@H](CCCNC(=N)N)C(=O)N[C@@H](CCCCNC(=O)COCCOCCNC(=O)COCCOCCNC(=O)CC[C@H](NC(=O)CCCCCCCCCCCCCCCCC(=O)O)C(=O)O)C(=O)NCC(=O)NCC(=O)N[C@@H](CO)C(=O)N[C@@H](CCCCNc1c(NCCCCCN(O)C(=O)CCC(=O)NCCCCCN(O)C(=O)CCC(=O)NCCCCCN(O)C(C)=O)c(=O)c1=O)C(=O)O)C(C)C [zirconium-89 labelled] | – | – | rat, muscle | iv, 3 nmol/kg, 4 h, ex vivo | – | tissue uptake | 0.12 %ID/g |
| Nc1ncnc2c1ncn2[C@@H]1O[C@@H]2COP(=O)(O)O[C@H]3[C@@H](O)[C@H](n4cnc5c(=O)[nH]cnc54)O[C@@H]3COP(=O)(O)O[C@H]2[C@H]1O | HFF-1 | RNA sequencing Reactome analysis, refers to: Reactome R-HSA-180292 GAB1 signalosome | – | with: West Nile virus infection | relative to: West Nile virus infected cells, upregulated pathway | pathway fold enrichment | 9.59 |
| C[C@H]1O[C@@H](O[C@H]2CC[C@@]3(C)[C@@H](CC[C@]4(C)[C@@H]3C=C[C@]35OC[C@@]6(CCC(C)(C)C[C@H]63)[C@@H](O)C[C@]54C)[C@]2(C)CO)[C@H](O)[C@@H](O[C@@H]2O[C@H](CO)[C@@H](O)[C@H](O)[C@H]2O)[C@H]1O | – | – | mouse, no ethanol, hepatic SIRT1 knockdown, liver | dose not given, high dose | – | NAD+/NADH ratio | 3.12 and 3.08 and 3.24 and 3.17 |
| CCCCCCCCCC(=O)N[C@@H](Cc1c[nH]c2ccccc12)C(=O)N[C@H](CC(N)=O)C(=O)N[C@@H](CC(=O)O)C(=O)N[C@@H]1C(=O)NCC(=O)N[C@@H](CCCN)C(=O)N[C@@H](CC(=O)O)C(=O)N[C@H](C)C(=O)N[C@@H](CC(=O)O)C(=O)NCC(=O)N[C@H](CO)C(=O)N[C@@H]([C@H](C)CC(=O)O)C(=O)N[C@@H](CC(=O)c2ccccc2N)C(=O)O[C@@H]1C | – | calcein leakage | DOPC/CHOL liposomes | concentration not given, with: 20 wt% PEG-8000 | – | fusion time constant | 11 ± 3 min |
| CC1=C(/C=C/C(C)=C/C=C/C(C)=C/C(=O)O)C(C)(C)CCC1 | human coronavirus OC43 | virus-induced cell killing | MRC-5 | maximum over 10 doses | – | maximum inhibition | 0% |
| COc1c(CCC[P+](c2ccccc2)(c2ccccc2)c2ccccc2)cc2c(c1OC)OCO2.[I-] | TK-10 | SRB | – | – | – | GI50 | -5.33 log M |
| CC(C)CCCCCCCCC[C@@H]1CC(=O)N[C@@H](CCC(=O)O)C(=O)N[C@@H](CC(C)C)C(=O)N[C@H](CC(C)C)C(=O)N[C@@H](C(C)C)C(=O)N[C@@H](CC(=O)O)C(=O)N[C@H](CC(C)C)C(=O)N[C@@H](CC(C)C)C(=O)O1 | – | calcein leakage | DOPC/CHOL liposomes | concentration not given, with: 20 wt% PEG-8000 | – | fusion time constant | 16 ± 1 min |
| C=CC(=O)Nc1cc(Nc2ncc(Cl)c(Nc3ccccc3C(=O)C(=O)N(C)C)n2)c(OC)cc1N1CCN(C)CC1 | – | RECIST v1.1 best response | human EGFR T790M NSCLC | oral, 50 mg/day, per-protocol set | – | patients with stable disease | 66.7% |
| CCCCC1(CCCC)CN(c2ccccc2)c2cc(SC)c(OCC(=O)N[C@@H](C(=O)NCC(=O)O)c3ccccc3)cc2S(=O)(=O)C1 | – | refers to: LDL cholesterol | human, serum | 2.5 mg once daily, day 9 | – | serum LDL-C | 99.3 mg/dL |
| C[C@]1(CO)Cc2ncn(-c3ccc(C#N)c(Cl)c3)c2C(=O)O1 | – | – | healthy men, plasma | dose not given, single and multiple doses | – | time to marked plasma aldosterone decrease | 1 to 2 h |

Some of these lines once more:
| SMILES | tested on | test | system | setting | how to read | measurement | value |
| --- | --- | --- | --- | --- | --- | --- | --- |
| CC(=O)c1c(C)c2cnc(Nc3ccc(C4CCN(CCS(C)(=O)=O)CC4)cn3)nc2n(C2CCCC2)c1=O | – | tumour growth | rat, MCF7 breast cancer model | oral, 40 mg/kg twice daily, 28 days | – | T/C | -25% |
| O=C(O)/C=C/C(=O)O.Oc1cccc2[nH]cc(CCNCc3ccccc3)c12 | – | – | C57BL/6J mice | subcutaneous, 0.3 mg/kg | relative to: pre-session baseline | body temperature change | 0 ± 0.1 °C |
| CC[C@@H](C)[C@@H](NC(=O)[C@@H](Cc1ccc(O)cc1)NC(=O)[C@H]1CCCN1C(=O)[C@@H](CCCNC(=N)N)NC(=O)[C@H](N)Cc1c[nH]cn1)C(=O)N[C@H](C)C(=O)N[C@H](Cc1c[nH]cn1)C(=O)N[C@H](CCCNC(=N)N)C(=O)N[C@H](CCCCNC(=O)c1cccc(S(=O)(=O)F)c1)C(=O)N[C@H](Cc1ccc(O)cc1)C(=O)N[C@H](CO)C(=O)N[C@H](Cc1ccccc1)C(N)=O | – | – | mouse orthotopic GL261-Luc glioma | intraperitoneal, 3.9 mg/kg, no detectable bioluminescence | – | tumour-free survival | > 90 days |
| CS(=O)(=O)c1ccc(-c2nnc(/C=C/c3nnc(-c4ccc(C#N)cc4)o3)n2-c2ccccc2Cl)nc1 | – | RNA-seq GSEA, refers to: HALLMARK_UNFOLDED_PROTEIN_RESPONSE | organoids, small intestinal, Apc Q1405X, mouse | dose not given, knockout organoids | relative to: DMSO, direction not given | normalized enrichment score | -1.83 |
